{"data": "Measured values of several laboratories", "C3ar1": "C3a anaphylatoxin chemotactic receptor (C3ar1, Mus musculus, UniProt O09047)", "NTSR1": "Neurotensin receptor type 1 (NTSR1, Homo sapiens, UniProt P30989)", "1-phosphatidylinositol 4,5-bisphosphate phosphodiesterase gamma-1 residues 21-1215": "1-phosphatidylinositol 4,5-bisphosphate phosphodiesterase gamma-1, residues 21-1215 (Rattus norvegicus, UniProt P10686)", "note": "Lines come from different studies, so protocols differ. Values joined by “and” are separate records of one study, mostly repeats; a detail may differ. ± marks the error that the study gave.", "chain of UniProt P46089 (whole entry, unmodified, looked up)": "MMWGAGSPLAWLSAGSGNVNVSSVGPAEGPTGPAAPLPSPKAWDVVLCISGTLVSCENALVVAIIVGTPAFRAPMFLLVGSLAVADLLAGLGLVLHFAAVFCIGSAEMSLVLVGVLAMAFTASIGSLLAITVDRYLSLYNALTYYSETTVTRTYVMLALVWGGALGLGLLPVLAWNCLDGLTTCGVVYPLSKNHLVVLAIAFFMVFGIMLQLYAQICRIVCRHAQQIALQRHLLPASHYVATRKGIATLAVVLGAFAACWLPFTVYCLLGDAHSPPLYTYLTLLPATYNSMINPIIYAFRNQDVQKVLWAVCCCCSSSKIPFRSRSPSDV", "chain of UniProt P30989 (whole entry, looked up)": "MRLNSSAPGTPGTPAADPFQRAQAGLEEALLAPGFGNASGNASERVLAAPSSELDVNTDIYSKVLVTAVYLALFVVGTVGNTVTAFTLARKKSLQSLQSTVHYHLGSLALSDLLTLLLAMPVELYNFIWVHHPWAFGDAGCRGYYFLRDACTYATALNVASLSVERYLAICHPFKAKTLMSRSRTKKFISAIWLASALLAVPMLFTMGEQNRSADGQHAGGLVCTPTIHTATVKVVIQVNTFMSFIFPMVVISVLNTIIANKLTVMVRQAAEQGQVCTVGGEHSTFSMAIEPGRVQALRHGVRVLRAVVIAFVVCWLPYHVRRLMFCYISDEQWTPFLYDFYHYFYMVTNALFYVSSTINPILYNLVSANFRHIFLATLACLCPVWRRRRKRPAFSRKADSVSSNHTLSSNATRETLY", "chain of UniProt O09047 (whole entry, looked up)": "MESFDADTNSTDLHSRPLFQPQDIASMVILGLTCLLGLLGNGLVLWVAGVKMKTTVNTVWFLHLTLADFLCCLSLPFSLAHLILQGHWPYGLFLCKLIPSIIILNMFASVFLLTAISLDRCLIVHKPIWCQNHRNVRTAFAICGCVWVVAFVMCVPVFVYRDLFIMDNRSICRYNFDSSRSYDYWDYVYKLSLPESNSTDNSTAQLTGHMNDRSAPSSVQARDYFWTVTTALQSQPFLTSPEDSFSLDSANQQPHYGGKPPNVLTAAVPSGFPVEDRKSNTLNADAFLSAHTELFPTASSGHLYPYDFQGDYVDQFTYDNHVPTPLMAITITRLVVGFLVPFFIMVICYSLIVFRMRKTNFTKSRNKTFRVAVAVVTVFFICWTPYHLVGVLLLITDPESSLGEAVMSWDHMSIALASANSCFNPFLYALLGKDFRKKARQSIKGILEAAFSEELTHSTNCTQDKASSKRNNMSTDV", "chain of UniProt P10686 (21-1215, looked up)": "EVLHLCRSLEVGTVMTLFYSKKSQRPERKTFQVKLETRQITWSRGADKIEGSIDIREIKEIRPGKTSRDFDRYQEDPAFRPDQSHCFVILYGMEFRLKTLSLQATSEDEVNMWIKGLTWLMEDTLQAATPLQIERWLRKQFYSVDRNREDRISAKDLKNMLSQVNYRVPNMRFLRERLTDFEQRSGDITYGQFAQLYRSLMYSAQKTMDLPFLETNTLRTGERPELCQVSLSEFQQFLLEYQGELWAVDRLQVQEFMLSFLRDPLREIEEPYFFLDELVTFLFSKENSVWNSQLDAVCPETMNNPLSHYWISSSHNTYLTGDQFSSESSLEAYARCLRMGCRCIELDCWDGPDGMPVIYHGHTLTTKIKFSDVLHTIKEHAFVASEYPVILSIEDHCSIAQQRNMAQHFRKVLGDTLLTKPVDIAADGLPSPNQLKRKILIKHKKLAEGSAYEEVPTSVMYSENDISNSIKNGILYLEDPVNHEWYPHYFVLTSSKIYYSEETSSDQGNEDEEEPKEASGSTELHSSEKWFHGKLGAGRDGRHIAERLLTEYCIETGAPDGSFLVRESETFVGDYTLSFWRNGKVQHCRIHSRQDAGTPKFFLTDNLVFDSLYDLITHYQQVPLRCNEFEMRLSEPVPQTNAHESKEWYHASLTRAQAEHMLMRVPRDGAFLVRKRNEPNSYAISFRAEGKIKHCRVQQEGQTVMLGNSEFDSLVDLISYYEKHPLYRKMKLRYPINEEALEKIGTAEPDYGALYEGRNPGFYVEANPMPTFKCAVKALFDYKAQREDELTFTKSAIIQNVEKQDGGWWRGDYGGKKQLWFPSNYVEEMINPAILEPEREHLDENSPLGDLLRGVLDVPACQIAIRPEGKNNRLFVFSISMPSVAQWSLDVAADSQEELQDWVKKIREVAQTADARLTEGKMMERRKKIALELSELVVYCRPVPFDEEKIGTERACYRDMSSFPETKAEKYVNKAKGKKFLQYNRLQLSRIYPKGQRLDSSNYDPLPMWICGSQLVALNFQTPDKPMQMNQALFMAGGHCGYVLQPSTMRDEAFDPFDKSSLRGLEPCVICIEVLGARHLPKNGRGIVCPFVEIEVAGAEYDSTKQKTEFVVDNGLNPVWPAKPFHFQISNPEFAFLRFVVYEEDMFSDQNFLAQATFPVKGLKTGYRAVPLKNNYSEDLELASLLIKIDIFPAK", "chain of UniProt P0DMS8 (whole entry, unmodified, looked up)": "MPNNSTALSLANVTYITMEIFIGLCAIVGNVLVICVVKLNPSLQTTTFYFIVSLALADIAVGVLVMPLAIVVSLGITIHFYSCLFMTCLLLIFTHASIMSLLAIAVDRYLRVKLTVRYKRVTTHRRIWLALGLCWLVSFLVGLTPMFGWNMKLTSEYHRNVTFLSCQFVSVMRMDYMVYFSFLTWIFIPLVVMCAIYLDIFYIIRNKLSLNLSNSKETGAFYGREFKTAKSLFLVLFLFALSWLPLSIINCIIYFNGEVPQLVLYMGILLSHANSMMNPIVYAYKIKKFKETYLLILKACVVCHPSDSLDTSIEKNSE", "chain of UniProt Q15391 (whole entry, unmodified, looked up)": "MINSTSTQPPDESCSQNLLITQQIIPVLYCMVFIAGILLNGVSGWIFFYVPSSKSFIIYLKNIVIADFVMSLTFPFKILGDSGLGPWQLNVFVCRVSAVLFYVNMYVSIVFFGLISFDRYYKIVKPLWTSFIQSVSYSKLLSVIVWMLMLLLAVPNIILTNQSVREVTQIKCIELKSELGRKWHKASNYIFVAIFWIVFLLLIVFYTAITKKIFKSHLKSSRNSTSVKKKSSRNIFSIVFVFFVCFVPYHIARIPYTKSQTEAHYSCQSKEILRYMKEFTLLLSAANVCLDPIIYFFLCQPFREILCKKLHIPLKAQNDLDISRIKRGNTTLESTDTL", "chain of UniProt Q9Y2T6 (whole entry, looked up)": "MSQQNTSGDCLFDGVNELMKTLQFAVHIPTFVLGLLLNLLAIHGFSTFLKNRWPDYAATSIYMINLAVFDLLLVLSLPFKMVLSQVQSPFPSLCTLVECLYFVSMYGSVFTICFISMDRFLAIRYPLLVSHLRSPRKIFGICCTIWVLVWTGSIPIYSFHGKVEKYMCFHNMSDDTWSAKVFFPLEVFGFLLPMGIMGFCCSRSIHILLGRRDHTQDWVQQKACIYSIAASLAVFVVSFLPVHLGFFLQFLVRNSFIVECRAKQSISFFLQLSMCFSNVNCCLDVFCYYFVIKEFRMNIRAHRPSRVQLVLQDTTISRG", "chain of UniProt Q92847 (whole entry, unmodified, looked up)": "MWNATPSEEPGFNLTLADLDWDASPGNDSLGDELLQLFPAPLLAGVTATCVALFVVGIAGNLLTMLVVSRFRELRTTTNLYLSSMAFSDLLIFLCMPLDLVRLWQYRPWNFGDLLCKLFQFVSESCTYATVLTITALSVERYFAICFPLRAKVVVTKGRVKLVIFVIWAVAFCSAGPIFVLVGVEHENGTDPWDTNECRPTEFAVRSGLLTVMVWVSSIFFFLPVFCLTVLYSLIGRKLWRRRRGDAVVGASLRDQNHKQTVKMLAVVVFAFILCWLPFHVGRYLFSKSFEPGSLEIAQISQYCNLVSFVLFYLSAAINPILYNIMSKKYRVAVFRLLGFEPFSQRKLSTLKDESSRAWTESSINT", "chain of UniProt P43220 (whole entry, unmodified, looked up)": "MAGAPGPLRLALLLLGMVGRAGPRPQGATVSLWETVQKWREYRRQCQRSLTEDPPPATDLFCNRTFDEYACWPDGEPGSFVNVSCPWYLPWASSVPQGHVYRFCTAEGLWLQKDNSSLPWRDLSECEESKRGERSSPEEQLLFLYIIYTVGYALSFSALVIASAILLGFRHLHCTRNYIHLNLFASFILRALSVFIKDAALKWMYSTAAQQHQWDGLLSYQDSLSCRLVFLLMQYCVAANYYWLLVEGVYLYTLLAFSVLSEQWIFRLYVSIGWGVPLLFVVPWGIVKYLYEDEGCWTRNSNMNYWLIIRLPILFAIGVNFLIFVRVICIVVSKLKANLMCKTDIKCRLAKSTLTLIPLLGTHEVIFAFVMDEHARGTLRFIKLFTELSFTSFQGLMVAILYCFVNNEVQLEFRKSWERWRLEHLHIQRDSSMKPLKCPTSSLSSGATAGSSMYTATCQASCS", "chain of UniProt Q8TDU9 (whole entry, unmodified, looked up)": "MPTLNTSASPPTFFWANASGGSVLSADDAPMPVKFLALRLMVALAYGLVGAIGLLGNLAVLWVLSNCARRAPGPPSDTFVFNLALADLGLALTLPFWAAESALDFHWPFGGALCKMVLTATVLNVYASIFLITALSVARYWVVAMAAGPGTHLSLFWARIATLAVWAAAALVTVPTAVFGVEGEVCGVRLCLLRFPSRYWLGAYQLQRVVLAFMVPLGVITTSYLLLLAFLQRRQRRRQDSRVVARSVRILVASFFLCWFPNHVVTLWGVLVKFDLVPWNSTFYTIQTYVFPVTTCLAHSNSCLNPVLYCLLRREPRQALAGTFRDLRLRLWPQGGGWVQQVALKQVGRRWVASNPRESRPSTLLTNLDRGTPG", "chain of UniProt P59540 (whole entry, looked up)": "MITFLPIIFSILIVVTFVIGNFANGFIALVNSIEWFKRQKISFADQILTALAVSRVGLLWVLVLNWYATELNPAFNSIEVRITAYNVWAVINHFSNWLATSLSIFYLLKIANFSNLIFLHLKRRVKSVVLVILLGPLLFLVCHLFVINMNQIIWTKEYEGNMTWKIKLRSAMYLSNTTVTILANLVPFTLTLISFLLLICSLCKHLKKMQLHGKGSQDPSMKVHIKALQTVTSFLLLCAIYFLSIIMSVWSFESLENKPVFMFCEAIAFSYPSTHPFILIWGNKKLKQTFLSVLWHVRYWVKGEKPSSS"}
{"SMILES": "CC(C)C[C@H](NC(=O)[C@H](Cc1ccccc1)NC(=O)[C@H](CCCNC(=N)N)NC(=O)[C@H](CCC(N)=O)NC(=O)[C@H](CC(C)C)NC(=O)C(C)(C)NC(=O)[C@H](C)NC(=O)[C@H](CCC(=O)O)NC(=O)[C@H](CCC(=O)O)NC(=O)[C@H](CCCCNC(=O)COCCOCCNC(=O)COCCOCCNC(=O)CC[C@H](NC(=O)CCCCCCCCCCCCCCCCCCC(=O)O)C(=O)O)NC(=O)[C@H](CC(C)C)NC(=O)[C@H](Cc1ccc(O)cc1)NC(=O)[C@H](CO)NC(=O)[C@@H](NC(=O)[C@H](CC(=O)O)NC(=O)[C@H](CO)NC(=O)[C@@H](NC(=O)[C@H](Cc1ccccc1)NC(=O)[C@@H](NC(=O)CNC(=O)[C@H](CCC(=O)O)NC(=O)C(C)(C)NC(=O)[C@@H](N)Cc1c[nH]cn1)[C@@H](C)O)[C@@H](C)O)C(C)C)C(=O)N[C@@H](CCC(=O)O)C(=O)N[C@@H](Cc1c[nH]cn1)C(=O)N[C@@H](CC(C)C)C(=O)N[C@H](C(N)=O)C(C)C", "target": "GLP2R (Homo sapiens, UniProt O95838)", "assay": "agonist", "endpoint": "EC50", "result": "> 5 µM"}
{"SMILES": "CC(C)C[C@H](NC(=O)[C@@H](N)[C@@H](C)O)C(=O)N[C@@H](CCC(N)=O)C(=O)N1CCC[C@H]1C(=O)N1CCC[C@H]1C(=O)N[C@@H](C)C(=O)N[C@@H](CO)C(=O)N[C@@H](CO)C(=O)N[C@@H](CCCNC(=N)N)C(=O)N[C@@H](CCCNC(=N)N)C(=O)N[C@@H](CCCNC(=N)N)C(=O)N[C@@H](Cc1c[nH]cn1)C(=O)N[C@@H](Cc1ccccc1)C(=O)N[C@@H](Cc1c[nH]cn1)C(=O)N[C@@H](Cc1c[nH]cn1)C(=O)N[C@@H](C)C(=O)N[C@@H](CC(C)C)C(=O)N1CCC[C@H]1C(=O)N1CCC[C@H]1C(=O)N[C@@H](C)C(=O)N[C@@H](CCCNC(=N)N)C(=O)O", "target": "C3ar1", "assay": "beta-arrestin 2 recruitment, agonist, NanoBiT", "system": "mouse", "endpoint": "EC50", "result": "0.115 µM"}
{"SMILES": "O=C(Cc1ccc(OCc2ccccc2)cc1)NC1(C(=O)O)CCN(C(=O)c2ccc(-c3cccc(Cl)c3)cc2)CC1", "target": "GPR55 (Homo sapiens, UniProt Q9Y2T6)", "assay": "cAMP, agonist, luciferase", "endpoint": "EC50", "result": "> 10 µM"}
{"SMILES": "N[C@@H](Cc1c[nH]c2ccc(OCc3ccc(-c4cccs4)cc3)cc12)C(=O)O", "target": "SLC7A5 (Homo sapiens, UniProt Q01650)", "assay": "leucine uptake", "system": "HT-29", "conditions": "with: [3H]-L-leucine", "endpoint": "EC50", "result": "19.8 µM"}
{"SMILES": "COc1ccccc1C1CCN(c2nc(C3(C(F)(F)F)CC3)nc3ccc(N(C)CCO)cc23)CC1", "target": "NTSR1", "assay": "β-arrestin recruitment, agonist", "endpoint": "EC50", "result": "3.37 µM"}
{"SMILES": "COc1ccccc1C1CCN(c2nc(C3CC3)nc3c(N(C)CCO)cccc23)CC1", "target": "NTSR1", "assay": "β-arrestin recruitment, agonist", "endpoint": "EC50", "result": "~54500 µM"}
{"SMILES": "CC(C)[C@H](NC(=O)[C@@H]1CSSC(C)(C)[C@H](NC(=O)[C@@H](N)CC(=O)O)C(=O)N[C@@H](Cc2ccccc2)C(=O)N[C@H](Cc2c[nH]c3ccccc23)C(=O)N[C@@H](CCCN)C(=O)N[C@@H](Cc2ccc(O)cc2)C(=O)N1)C(=O)O", "target": "UTS2R (Homo sapiens, UniProt Q9UKP6)", "assay": "Gi3 activation, agonist, BRET2", "system": "HEK293", "endpoint": "EC50", "result": "0.0195 µM"}
{"SMILES": "COc1cccc(NC(=O)N2CCOc3ccccc32)c1", "target": "Uncharacterized protein (Trypanosoma brucei brucei, UniProt Q386Q8)", "assay": "enzyme activity, inhibitor, coupled colorimetric", "conditions": "with: E. coli pyrophosphatase coupling", "endpoint": "IC50", "result": "77.8 µM"}
{"SMILES": "COc1cc(C2C(NC(=O)c3ccc(NC(=O)OC(C)(C)C)cc3)(C(=O)O)C(c3ccc(OC(=O)c4cccs4)c(OC)c3)C2(NC(=O)c2ccc(NC(=O)OC(C)(C)C)cc2)C(=O)O)ccc1OC(=O)c1cccs1 (stereo not shown)", "target": "GLP1R (Homo sapiens, UniProt P43220, W33A)", "assay": "cAMP, agonist", "endpoint": "EC50", "result": "0.741 µM"}
{"SMILES": "COc1ccccc1C1CCN(c2nc(C3(F)CCC3)nc3c(Cl)cc(N(C)CCO)cc23)CC1", "target": "NTSR1", "assay": "β-arrestin recruitment, agonist", "endpoint": "EC50", "result": "3.47 µM"}
{"SMILES": "Nc1ncnc2c1ncn2[C@@H]1O[C@H](COP(=O)(O)OP(=O)(O)OC[C@H]2OC(O)[C@H](O)[C@@H]2O)[C@@H](O)[C@H]1OP(=O)(O)O (stereo partly shown)", "target": "TRPM2 (Nematostella vectensis, UniProt A7T1N0, R156C)", "assay": "agonist", "endpoint": "EC50", "result": "0.032 ± 0.002 µM"}
{"SMILES": "CCCN(C)c1ccc2nc(C3CC3)nc(N3CCC(c4ccccc4OC)CC3)c2c1", "target": "NTSR1", "assay": "β-arrestin recruitment, agonist", "endpoint": "EC50", "result": "2.17 µM"}
{"SMILES": "CNc1ncnc2c1ncn2C1OC(CO)C(O)C1O (stereo not shown)", "target": "ADORA3 (Homo sapiens, UniProt P0DMS8, I253N)", "assay": "G protein activation, agonist", "endpoint": "EC50", "result": "0.069 µM"}
{"SMILES": "COc1ccccc1C1CCN(c2nc(C3CC3)nc3ccc(N(C)CCO)cc23)CC1", "target": "NTSR1", "assay": "β-arrestin recruitment, agonist", "endpoint": "EC50", "result": "6.76 µM"}
{"SMILES": "O=C(CNC(=O)c1ccc(Cl)cc1)NO", "target": "ureC (Bifidobacterium longum, UniProt A0ACD7UN78)", "endpoint": "EC50", "result": "26.5 ± 0.2 µM"}
{"SMILES": "COc1ccccc1C1CCN(c2nc(C3(F)CC3)nc3ccc(N(C)CCN4CCOCC4)cc23)CC1", "target": "NTSR1", "assay": "β-arrestin recruitment, agonist", "endpoint": "EC50", "result": "7.46 µM"}
{"SMILES": "COc1ccccc1C1CCN(c2nc(C3(F)CC3)nc3ccc(N(C)CCO)cc23)CC1", "target": "NTSR1", "assay": "β-arrestin recruitment, agonist", "endpoint": "EC50", "result": "5.99 µM"}
{"SMILES": "CC(C)C[C@H](NC(=O)[C@H](C)NC(=O)[C@H](CO)NC(=O)[C@@H]1CCCN1C(=O)[C@@H]1CCCN1C(=O)[C@H](CCC(N)=O)NC(=O)[C@H](CC(C)C)NC(=O)[C@@H](N)[C@@H](C)O)C(=O)N[C@@H](CCCNC(=N)N)C(=O)N[C@@H](CCCNC(=N)N)C(=O)N[C@@H](CCCNC(=N)N)C(=O)N[C@@H](Cc1c[nH]cn1)C(=O)N[C@@H](Cc1ccc(O)cc1)C(=O)N[C@@H](Cc1c[nH]cn1)C(=O)N[C@@H](Cc1c[nH]cn1)C(=O)N[C@@H](C)C(=O)N[C@@H](CC(C)C)C(=O)N1CCC[C@H]1C(=O)N1CCC[C@H]1C(=O)N[C@@H](CO)C(=O)N[C@@H](CCCNC(=N)N)C(=O)O", "target": "C3ar1", "assay": "beta-arrestin 2 recruitment, agonist, NanoBiT", "system": "mouse", "endpoint": "EC50", "result": "0.617 µM"}
{"SMILES": "CCCn1c(=O)c2cc(F)ccc2n2c(=S)[nH]nc12", "target": "1-phosphatidylinositol 4,5-bisphosphate phosphodiesterase gamma-1 residues 21-1215", "assay": "enzyme activity, activator", "system": "lipid vesicles", "conditions": "15 min preincubation, with: XY-69 substrate 0.5 µM", "endpoint": "EC50", "result": "12 µM"}
{"SMILES": "CCc1cc(O)cc2c(/C=N/NC(=N)NCCc3ccc(Cl)cc3)c[nH]c12", "target": "RXFP4 (Homo sapiens, UniProt Q8TDU9, V122A)", "assay": "agonist", "endpoint": "EC50", "result": "0.00759 µM"}
{"SMILES": "COc1ccc(OC[C@H]2c3cccn3CC(=O)N2Cc2cccc(F)c2)cc1", "target": "Grin2a/Grin2d (Rattus norvegicus, UniProt Q00959+Q62645)", "assay": "activator", "system": "cells", "endpoint": "EC50", "result": "1.8 µM"}
{"SMILES": "C/C(=C/CC[C@@H](C)[C@H]1CC[C@@]2(C)C3=C([C@@H](O[C@@H]4O[C@H](CO)[C@@H](O)[C@H](O)[C@H]4O)C[C@]12C)[C@@]1(C)CCC(=O)C(C)(C)[C@@H]1CC3)C(=O)O", "target": "TAS2R46 (Homo sapiens, UniProt P59540)", "assay": "calcium signal, agonist, fluorescence", "endpoint": "EC50", "result": "1.5 µM"}
{"SMILES": "COc1ccccc1C1CCN(c2nc(C3(F)CC3)nc3cc(Cl)c(N(C)CCO)cc23)CC1", "target": "NTSR1", "assay": "β-arrestin recruitment, agonist", "endpoint": "EC50", "result": "17.5 µM"}
{"SMILES": "COc1ccccc1N1CCN(c2nc(C3CC3)nc3cc(C(F)(F)F)c(OC)cc23)CC1", "target": "NTSR1", "assay": "β-arrestin recruitment, agonist", "endpoint": "EC50", "result": "4.75 µM"}
{"SMILES": "COc1ccc2c(c1OC)C(=O)N(c1ccc(OC(F)(F)F)cc1)C2", "target": "ppa (Escherichia coli, UniProt P0A7A9)", "assay": "enzyme activity, inhibitor", "endpoint": "IC50", "result": "> 100 µM"}
{"SMILES": "COc1ccc(C(=O)c2c(C(=O)NCCCN(C)C)oc3ccc(Cl)cc3c2=O)cc1OC", "target": "GHSR (Homo sapiens, UniProt Q92847, P200A)", "assay": "intracellular Ca2+, agonist", "system": "HEK293T transiently transfected", "endpoint": "EC50", "result": "2.09 µM"}
{"SMILES": "CCOC(=O)Nc1ccc(NCc2ccc(F)cc2)nc1N", "target": "1-phosphatidylinositol 4,5-bisphosphate phosphodiesterase gamma-1 residues 21-1215", "assay": "enzyme activity, activator", "system": "lipid vesicles", "conditions": "15 min preincubation, with: XY-69 substrate 0.5 µM", "endpoint": "EC50", "result": "> 100 µM"}
{"SMILES": "C#Cc1nc(N2CCC(c3ccccc3OC)CC2)c2cc(N(C)CCO)ccc2n1", "target": "NTSR1", "assay": "β-arrestin recruitment, agonist", "endpoint": "EC50", "result": "175 µM"}
{"SMILES": "COc1ccccc1C1CCN(c2nc(C3(C(F)(F)F)CCCC3)nc3ccc(N(C)CCO)cc23)CC1", "target": "NTSR1", "assay": "β-arrestin recruitment, agonist", "endpoint": "EC50", "result": "18 µM"}
{"SMILES": "CC(C)Oc1cc(Cl)ccc1CNc1cc(-c2ccccc2)nc2ncnn12", "target": "GPR3 (Homo sapiens, UniProt P46089, M156A)", "assay": "cAMP level, agonist, GloSensor", "conditions": "receptor M156A mutant", "endpoint": "EC50", "result": "2.09 µM and 1.35 µM and 0.933 µM and 1 µM"}
{"SMILES": "O=c1ccn([C@@H]2O[C@H](COP(=O)(O)CP(=O)(O)O)[C@@H](O)[C@H]2O)c(=S)[nH]1", "target": "P2Y purinoceptor 14 (P2RY14, Homo sapiens, UniProt Q15391)", "assay": "calcium mobilisation, agonist", "system": "cells with Gαqi5", "conditions": "receptor mutant Wt", "endpoint": "EC50", "result": "0.24 ± 0.066 µM"}
{"note": "A few entries again:"}
{"SMILES": "COc1ccccc1C1CCN(c2nc(C3CC3)nc3ccc(N(C)CCO)cc23)CC1", "target": "NTSR1", "assay": "β-arrestin recruitment, agonist", "endpoint": "EC50", "result": "6.76 µM"}
{"SMILES": "O=C(CNC(=O)c1ccc(Cl)cc1)NO", "target": "ureC (Bifidobacterium longum, UniProt A0ACD7UN78)", "endpoint": "EC50", "result": "26.5 ± 0.2 µM"}
{"SMILES": "COc1ccccc1C1CCN(c2nc(C3(F)CC3)nc3ccc(N(C)CCN4CCOCC4)cc23)CC1", "target": "NTSR1", "assay": "β-arrestin recruitment, agonist", "endpoint": "EC50", "result": "7.46 µM"}
{"SMILES": "COc1ccccc1C1CCN(c2nc(C3(F)CC3)nc3ccc(N(C)CCO)cc23)CC1", "target": "NTSR1", "assay": "β-arrestin recruitment, agonist", "endpoint": "EC50", "result": "5.99 µM"}
{"SMILES": "CC(C)C[C@H](NC(=O)[C@H](C)NC(=O)[C@H](CO)NC(=O)[C@@H]1CCCN1C(=O)[C@@H]1CCCN1C(=O)[C@H](CCC(N)=O)NC(=O)[C@H](CC(C)C)NC(=O)[C@@H](N)[C@@H](C)O)C(=O)N[C@@H](CCCNC(=N)N)C(=O)N[C@@H](CCCNC(=N)N)C(=O)N[C@@H](CCCNC(=N)N)C(=O)N[C@@H](Cc1c[nH]cn1)C(=O)N[C@@H](Cc1ccc(O)cc1)C(=O)N[C@@H](Cc1c[nH]cn1)C(=O)N[C@@H](Cc1c[nH]cn1)C(=O)N[C@@H](C)C(=O)N[C@@H](CC(C)C)C(=O)N1CCC[C@H]1C(=O)N1CCC[C@H]1C(=O)N[C@@H](CO)C(=O)N[C@@H](CCCNC(=N)N)C(=O)O", "target": "C3ar1", "assay": "beta-arrestin 2 recruitment, agonist, NanoBiT", "system": "mouse", "endpoint": "EC50", "result": "0.617 µM"}
